Published values pooled from the literature.
Lines come from different studies, so protocols differ.

| Compound | system | conditions | Tmax |
| --- | --- | --- | --- |
| CC(C)[C@H]1NC(=O)C[C@H]2/C=C/CCSSC[C@@H](NC1=O)C(=O)N[C@H](Cc1cccc3ccccc13)C(=O)NCC(=O)O2 | nude mouse, blood | oral, 24 mg/kg | 0.25 h |
| CCCCCCCC(=O)NC[C@H](NC(=O)[C@H](CO)NC(=O)CN)C(=O)N[C@@H](Cc1ccccc1)C(=O)N[C@@H](CC(C)C)C(=O)N[C@@H](CO)C(=O)N1CCC[C@H]1C(=O)N[C@@H](CCC(=O)O)C(=O)N[C@@H](Cc1c[nH]cn1)C(=O)N[C@@H](CCC(N)=O)C(=O)N[C@@H](CCCNC(=N)N)C(=O)N[C@H](C(=O)N[C@@H](CCC(N)=O)C(=O)N[C@H](C(=O)N[C@@H](CCCNC(=N)N)C(=O)N1CCC[C@H]1C(=O)N1CCC[C@H]1C(=O)N[C@@H](Cc1c[nH]cn1)C(=O)N[C@@H](CCCCN)C(=O)N[C@@H](C)C(=O)N1CCC[C@H]1C(=O)N[C@@H](Cc1c[nH]cn1)C(=O)N[C@H](C(=O)N[C@H](C(=O)O)C(C)C)C(C)C)C(C)C)C(C)C | mouse, plasma | subcutaneous, 7.2 mg/kg | 0.0833 h |
| CCCCCCCCCCCCCCCC(=O)NCCCC[C@H](NC(=O)[C@H](CCCCN)NC(=O)[C@H](CCCCN)NC(=O)[C@@H]1CCCN1C(=O)CNC(=O)[C@H](CC(C)C)NC(=O)[C@H](CC(C)C)NC(=O)[C@H](Cc1ccc(O)cc1)NC(=O)CNC(=O)[C@H](C)NC(=O)[C@H](CO)NC(=O)[C@H](CC(N)=O)NC(=O)[C@H](CC(C)C)NC(=O)[C@@H](NC(=O)[C@H](Cc1c[nH]c2ccccc12)NC(=O)CNC)[C@@H](C)O)C(=O)N[C@@H](CCCCN)C(N)=O | CF-1 mouse, plasma | intraperitoneal, 2 mg/kg | 1 h |
| C[C@H](CCC(=O)N[C@@H](CCCCNC(=O)C(F)(F)F)C(=O)O)[C@H]1CC[C@H]2[C@@H]3[C@H](O)C[C@@H]4C[C@H](O)CC[C@]4(C)[C@H]3C[C@H](O)[C@]12C | mouse, plasma | oral, 50 mg/kg | 5 h |
| CC[C@H](C)[C@H](NC(=O)CNC(=O)[C@@H](NC(=O)[C@H](Cc1ccc(O)cc1)NC(=O)[C@@H](NC(=O)[C@H](CO)NC(=O)[C@@H](NC(=O)[C@H](C)NC(=O)[C@@H]1CCCN1C(=O)[C@@H](NC(=O)[C@H](Cc1ccccc1)NC(=O)[C@H](CCCCN)NC(=O)[C@H](CCC(=O)O)NC(=O)[C@H](Cc1ccc(O)cc1)NC(=O)[C@H](CC(C)C)NC(=O)[C@H](CC(=O)O)NC(=O)[C@H](CCCNC(=N)N)NC(=O)[C@H](CC(C)C)NC(=O)[C@H](CCCCN)NC(=O)[C@H](CCC(=O)O)NC(=O)[C@H](Cc1ccccc1)NC(=O)[C@@H](NC(=O)[C@H](CCC(=O)O)NC(=O)[C@H](CCCCN)NC(=O)[C@H](CC(C)C)NC(=O)[C@H](Cc1ccc(O)cc1)NC(=O)[C@@H](N)CC(=O)O)C(C)C)[C@@H](C)O)C(C)C)[C@@H](C)O)[C@@H](C)O)C(=O)N[C@@H](Cc1ccccc1)C(=O)N[C@H](C(=O)N[C@@H](CC(=O)O)C(=O)N[C@@H](CCC(N)=O)C(=O)N[C@H](C(=O)N[C@@H](CC(C)C)C(=O)N[C@@H](CO)C(=O)N[C@H](C(=O)N[C@@H](CC(C)C)C(=O)N[C@@H](CCCCN)C(=O)NCC(=O)N[C@@H](CCC(=O)O)C(=O)N[C@@H](CCC(=O)O)C(=O)O)C(C)C)C(C)C)[C@@H](C)O | female C57BL/6 mouse, plasma | subcutaneous, single dose | 3 h |
| O=c1cc(-c2ccccc2)oc2c(Br)c(O)c(O)c(O)c12 | C57BL/6 mouse, plasma | oral, 250 mg/kg, single dose | 1.6 h |
| CSCC[C@H](NC(=O)CNC(=O)[C@H](CC(=O)O)NC(=O)[C@@H](NC(=O)[C@@H](NC(=O)[C@@H](NC(=O)CNC(=O)[C@H](CCC(=O)O)NC(=O)[C@H](CCSC)NC(=O)[C@H](CC(=O)O)NC(=O)[C@H](C)NC(=O)[C@H](C)NC(=O)[C@@H](NC(=O)[C@H](CO)NC(=O)[C@@H](N)CC(C)C)[C@@H](C)O)C(C)C)C(C)C)[C@@H](C)O)C(=O)N[C@@H](C)C(=O)N[C@@H](CO)C(=O)NCC(=O)N[C@@H](CC(C)C)C(=O)N[C@@H](CC(=O)O)C(=O)N[C@@H](CCCCN)C(=O)N[C@@H](CC(=O)O)C(=O)N[C@@H](Cc1ccc(O)cc1)C(=O)N[C@@H](CC(C)C)C(=O)N[C@@H](CCCCN)C(=O)N1CCC[C@H]1C(=O)N[C@@H](CC(=O)O)C(=O)N[C@@H](CC(=O)O)C(=O)O | male CD-1 mouse, serum | intravenous, 480 mg/kg, single dose | 0.0333 h |
| COc1ccc(F)cc1S(=O)(=O)Nc1cnc2c(c1)C(=O)NCCO2 | male C57BL/6 mouse, plasma | oral, 0.1 mg/kg, single dose | 1 h |

Some of these lines once more:
| Compound | system | conditions | Tmax |
| --- | --- | --- | --- |
| CC(C)[C@H]1NC(=O)C[C@H]2/C=C/CCSSC[C@@H](NC1=O)C(=O)N[C@H](Cc1cccc3ccccc13)C(=O)NCC(=O)O2 | nude mouse, blood | oral, 24 mg/kg | 0.25 h |
